Measurements of several laboratories.
Lines come from different studies, so protocols differ. ± gives the spread as reported.

Structure (SMILES) | species | medium | route | dose | time | notes | Cmax
CCc1nc(C(N)=O)c(Nc2ccc(N3CCC(N4CCN(C)CC4)CC3)c(OC)c2)nc1NC1CCOCC1 | female FVB mice, MATE1 knockout | plasma | oral | 10 mg/kg | – | single dose | 485 ± 48 ng/mL
CCN1CCN(Cc2ccc(NC(=O)c3ccc(C)c(NC(=O)c4cncc(-c5cccs5)c4)c3)cc2C(F)(F)F)CC1 | C57BL/6 mice | epithelial lining fluid | intraperitoneal | 15 mg/kg | – | – | 2110 ng/mL
CN1CCC[C@H](CN2c3ccccc3Sc3ccccc32)C1.Cl | fasted female ICR mice | plasma | oral | 16 mg/kg single dose | – | – | 339 ng/mL
COc1cc([C@@H]2Oc3ccc([C@H]4Oc5cc(O)cc(O)c5C(=O)[C@@H]4O)cc3O[C@H]2CO)ccc1O | FVB wild-type mice | plasma | oral gavage | 500 mg/kg silymarin | – | – | 0.2 µM
Cc1cc(C)c(CNC(=O)c2cc(Cl)c3c(c2C)O[C@@](C)([C@H]2CC[C@H](N(C)C)CC2)O3)c(=O)[nH]1 | female CB17 SCID mice, HT-1376 xenograft | plasma | – | 75 mg/kg | day 1 | – | 3090 ng/mL
CCOC(=O)c1cc(Cl)cc(NC(=O)c2sc(Cl)cc2S(=O)(=O)N(C)c2ccc(OCC)c(OC)c2)c1 | male C57BL/6 mice | brain | intraperitoneal | 10 mg/kg | – | – | 10.3 ng/g
CNC(=O)c1cc(Oc2ccc(NC(=O)Nc3ccc(Cl)c(C(F)(F)F)c3)cc2)ccn1 | female Oatp1b2(-/-) mice, DBA1/lacJ | plasma | oral | 10 mg/kg | – | no rifampin, geometric mean | 4880 ng/mL
Nc1ncc(-c2ccncc2)nc1Nc1ccc2[nH]ccc2c1 | C57BL mice, male | plasma | subcutaneous | 10 mg/kg | – | – | 5.1 µM
CO[C@H]1C[C@@H]2CC[C@@H](C)[C@@](O)(O2)C(=O)C(=O)N2CCCC[C@H]2C(=O)O[C@H]([C@H](C)C[C@@H]2CC[C@@H](OC(=O)NCCOCCOCCOCCOCCOCCOCCOCCOCCC(=O)N3CCc4cc(Cn5nc(-c6ccc7oc(N)nc7c6)c6c(N)ncnc65)ccc4C3)[C@H](OC)C2)C[C@@H](O)[C@H](C)/C=C(\C)[C@@H](O)[C@@H](OC)C(=O)[C@H](C)C[C@H](C)/C=C/C=C/C=C/1C | tumour-bearing xenograft mice | plasma | intraperitoneal | 3 mg/kg | – | weekly dosing | 3.66 µM
Cc1c(C(=O)O)ccc2c3n(nc12)[C@@H]1[C@H](C3)N(CC2CC2)[C@@]2(C(=O)Nc3cc(Cl)ccc32)[C@H]1c1cccc(Cl)c1F | female BALB/c nude mice, SJSA-1 xenograft | plasma | oral | 1 mg/kg twice daily, 2 doses | – | mean | 1.37 µM
Cn1c(C(F)(F)F)cc(=O)n(-c2cc(Oc3cccnc3OCC(=O)O)c(Cl)cc2F)c1=O | Crl:CD1(ICR) mice, male | plasma | oral diet | 5 ppm in diet | day 1 | 90-day toxicity study | 16.2 ng/mL
Cc1ccc(CCC(=O)Nc2nnc(S(N)(=O)=O)s2)cc1 | BALB/c mice, male | plasma | oral | 20 mg/kg | – | unbound | 5.91 µM
CC(C)(C)c1ccc(O)c(CN(Cc2cc(C(C)(C)C)ccc2O)C2CCC(NC(N)=O)CC2)c1 (stereo not shown) | C57BL/6 mice, male | plasma | oral | 10 mg/kg | – | – | 1020 ng/mL

A few entries again:
Structure (SMILES) | species | medium | route | dose | time | notes | Cmax
CN1CCC[C@H](CN2c3ccccc3Sc3ccccc32)C1.Cl | fasted female ICR mice | plasma | oral | 16 mg/kg single dose | – | – | 339 ng/mL
COc1cc([C@@H]2Oc3ccc([C@H]4Oc5cc(O)cc(O)c5C(=O)[C@@H]4O)cc3O[C@H]2CO)ccc1O | FVB wild-type mice | plasma | oral gavage | 500 mg/kg silymarin | – | – | 0.2 µM
